# Results pooled from the literature.
# The chains behind the UniProt entries cited, without tags or fusion partners. Where a name states a change or a piece, a line headed by the entry shows the natural chain unless it says otherwise. Residues count along the entry.
# UniProt P35372, whole entry: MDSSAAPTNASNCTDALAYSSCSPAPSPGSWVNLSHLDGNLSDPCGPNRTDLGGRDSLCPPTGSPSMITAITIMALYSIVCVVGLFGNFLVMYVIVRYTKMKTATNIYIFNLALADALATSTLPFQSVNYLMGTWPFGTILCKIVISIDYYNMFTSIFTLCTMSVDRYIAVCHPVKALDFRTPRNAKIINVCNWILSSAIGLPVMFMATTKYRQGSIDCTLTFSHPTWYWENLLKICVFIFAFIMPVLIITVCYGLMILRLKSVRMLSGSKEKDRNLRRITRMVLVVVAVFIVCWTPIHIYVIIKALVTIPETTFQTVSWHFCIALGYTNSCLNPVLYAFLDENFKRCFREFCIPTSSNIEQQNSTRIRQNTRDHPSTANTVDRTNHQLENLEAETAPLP
# UniProt P9WPP7, whole entry: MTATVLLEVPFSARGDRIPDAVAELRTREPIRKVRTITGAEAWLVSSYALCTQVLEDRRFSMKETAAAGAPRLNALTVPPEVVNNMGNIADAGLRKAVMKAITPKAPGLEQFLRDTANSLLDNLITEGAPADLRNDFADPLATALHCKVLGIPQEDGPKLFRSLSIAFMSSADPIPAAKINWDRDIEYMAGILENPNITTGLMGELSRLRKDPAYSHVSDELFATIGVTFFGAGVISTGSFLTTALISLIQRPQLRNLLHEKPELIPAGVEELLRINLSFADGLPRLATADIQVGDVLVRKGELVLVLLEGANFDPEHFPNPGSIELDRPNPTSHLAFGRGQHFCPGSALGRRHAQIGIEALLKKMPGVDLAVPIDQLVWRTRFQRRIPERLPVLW
# UniProt P41145, whole entry: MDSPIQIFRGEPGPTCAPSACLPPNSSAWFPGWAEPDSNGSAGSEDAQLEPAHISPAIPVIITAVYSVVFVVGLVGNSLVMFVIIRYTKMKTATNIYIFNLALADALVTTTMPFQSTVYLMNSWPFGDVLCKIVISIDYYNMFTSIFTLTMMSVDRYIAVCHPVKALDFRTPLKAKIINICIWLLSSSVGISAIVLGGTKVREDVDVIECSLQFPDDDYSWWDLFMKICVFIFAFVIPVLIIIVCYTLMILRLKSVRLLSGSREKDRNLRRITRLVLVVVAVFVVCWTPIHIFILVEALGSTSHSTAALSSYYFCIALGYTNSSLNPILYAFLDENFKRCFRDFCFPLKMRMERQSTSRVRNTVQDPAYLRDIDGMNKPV
# UniProt P23977, whole entry: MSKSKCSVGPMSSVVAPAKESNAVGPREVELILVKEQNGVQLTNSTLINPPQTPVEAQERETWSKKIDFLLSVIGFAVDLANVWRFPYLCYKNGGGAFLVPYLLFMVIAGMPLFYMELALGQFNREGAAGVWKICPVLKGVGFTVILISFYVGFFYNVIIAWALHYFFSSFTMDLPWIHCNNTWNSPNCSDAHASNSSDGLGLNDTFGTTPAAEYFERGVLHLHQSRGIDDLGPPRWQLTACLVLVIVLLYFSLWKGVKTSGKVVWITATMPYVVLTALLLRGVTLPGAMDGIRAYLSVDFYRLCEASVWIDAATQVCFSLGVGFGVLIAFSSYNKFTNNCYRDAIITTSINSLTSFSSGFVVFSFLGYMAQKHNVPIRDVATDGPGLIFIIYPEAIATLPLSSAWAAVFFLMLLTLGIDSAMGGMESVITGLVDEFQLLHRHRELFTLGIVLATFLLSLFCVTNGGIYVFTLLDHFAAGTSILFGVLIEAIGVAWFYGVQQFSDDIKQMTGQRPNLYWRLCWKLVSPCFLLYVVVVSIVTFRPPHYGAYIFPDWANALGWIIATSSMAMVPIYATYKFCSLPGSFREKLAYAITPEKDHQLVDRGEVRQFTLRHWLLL
# UniProt P06241, whole entry, looked up: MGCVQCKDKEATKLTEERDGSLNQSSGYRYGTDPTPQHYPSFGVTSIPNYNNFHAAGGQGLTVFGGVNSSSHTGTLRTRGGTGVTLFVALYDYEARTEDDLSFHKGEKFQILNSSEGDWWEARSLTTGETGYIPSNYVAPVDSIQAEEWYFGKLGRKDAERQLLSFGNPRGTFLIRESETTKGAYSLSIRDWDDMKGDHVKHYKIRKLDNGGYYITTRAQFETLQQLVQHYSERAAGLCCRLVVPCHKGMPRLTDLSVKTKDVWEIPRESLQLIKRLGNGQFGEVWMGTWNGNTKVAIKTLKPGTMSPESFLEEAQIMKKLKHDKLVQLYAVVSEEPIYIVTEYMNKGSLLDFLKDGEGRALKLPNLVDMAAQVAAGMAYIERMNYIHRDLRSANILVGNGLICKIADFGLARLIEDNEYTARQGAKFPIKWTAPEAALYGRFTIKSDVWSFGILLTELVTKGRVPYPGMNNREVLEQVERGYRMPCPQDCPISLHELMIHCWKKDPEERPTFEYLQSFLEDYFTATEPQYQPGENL
# UniProt P06241, whole entry M250P/L253P/T254P, looked up: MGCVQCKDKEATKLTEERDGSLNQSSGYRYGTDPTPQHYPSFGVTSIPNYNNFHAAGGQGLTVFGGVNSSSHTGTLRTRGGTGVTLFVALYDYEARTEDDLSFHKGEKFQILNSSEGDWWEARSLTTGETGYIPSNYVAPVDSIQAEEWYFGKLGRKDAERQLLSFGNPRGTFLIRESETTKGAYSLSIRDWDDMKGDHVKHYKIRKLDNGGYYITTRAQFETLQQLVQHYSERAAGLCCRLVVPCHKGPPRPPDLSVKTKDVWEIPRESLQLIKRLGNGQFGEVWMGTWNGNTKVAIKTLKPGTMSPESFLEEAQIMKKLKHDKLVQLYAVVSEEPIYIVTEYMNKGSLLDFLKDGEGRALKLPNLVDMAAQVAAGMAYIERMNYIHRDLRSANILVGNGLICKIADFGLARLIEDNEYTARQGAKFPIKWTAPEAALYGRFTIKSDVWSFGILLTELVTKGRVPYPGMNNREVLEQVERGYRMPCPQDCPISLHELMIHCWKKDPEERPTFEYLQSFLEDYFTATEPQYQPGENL
# UniProt P41143, whole entry: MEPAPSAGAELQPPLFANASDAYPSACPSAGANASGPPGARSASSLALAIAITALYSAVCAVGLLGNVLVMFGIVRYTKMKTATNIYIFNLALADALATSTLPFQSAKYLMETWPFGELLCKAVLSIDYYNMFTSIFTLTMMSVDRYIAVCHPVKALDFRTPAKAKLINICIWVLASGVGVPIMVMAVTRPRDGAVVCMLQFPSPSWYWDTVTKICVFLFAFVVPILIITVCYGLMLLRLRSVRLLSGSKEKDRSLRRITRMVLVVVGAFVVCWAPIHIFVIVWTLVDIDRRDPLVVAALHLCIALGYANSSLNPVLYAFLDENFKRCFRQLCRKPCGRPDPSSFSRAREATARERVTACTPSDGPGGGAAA
# UniProt P14867, 28-456 L291T limits assumed: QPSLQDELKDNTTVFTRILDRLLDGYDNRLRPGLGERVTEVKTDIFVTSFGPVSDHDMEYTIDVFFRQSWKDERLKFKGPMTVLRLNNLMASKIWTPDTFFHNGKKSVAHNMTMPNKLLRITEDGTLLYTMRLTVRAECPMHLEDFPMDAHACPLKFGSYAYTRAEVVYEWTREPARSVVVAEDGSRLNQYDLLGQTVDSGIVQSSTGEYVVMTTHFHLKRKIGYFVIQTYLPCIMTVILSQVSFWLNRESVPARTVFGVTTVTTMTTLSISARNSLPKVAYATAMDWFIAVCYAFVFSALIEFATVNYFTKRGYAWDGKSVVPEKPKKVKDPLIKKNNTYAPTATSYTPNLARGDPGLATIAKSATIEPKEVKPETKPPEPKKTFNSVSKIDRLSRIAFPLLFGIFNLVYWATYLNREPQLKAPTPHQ
# UniProt P28472, 26-473 limits assumed, stated change not applied: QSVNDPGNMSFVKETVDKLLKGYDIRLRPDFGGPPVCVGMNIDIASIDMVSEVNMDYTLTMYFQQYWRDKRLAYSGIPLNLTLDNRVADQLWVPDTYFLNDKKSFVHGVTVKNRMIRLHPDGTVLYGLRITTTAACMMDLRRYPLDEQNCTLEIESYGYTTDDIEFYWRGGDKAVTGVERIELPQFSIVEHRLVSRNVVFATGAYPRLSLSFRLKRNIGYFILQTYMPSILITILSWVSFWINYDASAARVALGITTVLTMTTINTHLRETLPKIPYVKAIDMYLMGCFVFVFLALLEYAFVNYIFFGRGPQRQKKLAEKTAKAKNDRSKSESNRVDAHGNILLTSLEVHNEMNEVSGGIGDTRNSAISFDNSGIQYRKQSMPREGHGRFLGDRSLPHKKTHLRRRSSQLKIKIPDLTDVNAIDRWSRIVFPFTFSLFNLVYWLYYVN
# UniProt P9WGR1, whole entry: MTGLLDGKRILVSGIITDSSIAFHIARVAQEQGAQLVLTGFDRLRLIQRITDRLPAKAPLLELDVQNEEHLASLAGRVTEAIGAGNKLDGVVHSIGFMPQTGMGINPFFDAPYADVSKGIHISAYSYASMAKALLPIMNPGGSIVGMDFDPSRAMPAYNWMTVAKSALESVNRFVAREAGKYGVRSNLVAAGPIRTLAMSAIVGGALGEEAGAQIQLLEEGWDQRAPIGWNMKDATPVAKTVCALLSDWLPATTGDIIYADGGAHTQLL
# UniProt O07899, whole entry: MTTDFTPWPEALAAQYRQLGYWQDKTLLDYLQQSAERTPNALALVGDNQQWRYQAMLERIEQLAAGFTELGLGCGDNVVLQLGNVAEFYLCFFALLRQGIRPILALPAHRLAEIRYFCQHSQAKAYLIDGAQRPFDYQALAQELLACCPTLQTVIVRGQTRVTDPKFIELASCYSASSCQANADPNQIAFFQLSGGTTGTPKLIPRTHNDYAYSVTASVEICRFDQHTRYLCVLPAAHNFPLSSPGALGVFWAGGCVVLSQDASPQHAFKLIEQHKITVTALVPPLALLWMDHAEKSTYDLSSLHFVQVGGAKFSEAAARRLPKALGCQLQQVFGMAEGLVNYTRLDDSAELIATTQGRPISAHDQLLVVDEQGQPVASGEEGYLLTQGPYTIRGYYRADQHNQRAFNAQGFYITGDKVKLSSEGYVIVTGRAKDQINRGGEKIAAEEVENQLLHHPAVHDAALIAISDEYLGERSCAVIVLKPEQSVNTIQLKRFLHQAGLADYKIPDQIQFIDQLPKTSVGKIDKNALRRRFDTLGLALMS
# Each line is one published result; not all experiments were run side by side. Numbers after ± are the reported error.
# hly: hly (Listeria monocytogenes, UniProt P13128)
# OPRM1 with beta-arrestin-2: Mu-type opioid receptor, with beta-arrestin-2 (OPRM1, Homo sapiens, UniProt P35372)
# cyp121: Mycocyclosin synthase (cyp121, Mycobacterium tuberculosis, UniProt P9WPP7)
# OPRK1: Kappa-type opioid receptor (OPRK1, Homo sapiens, UniProt P41145)
# Slc6a3: Sodium-dependent dopamine transporter (Slc6a3, Rattus norvegicus, UniProt P23977)
SMILES,target,assay,system,setting,how to read,endpoint,result
CC(=O)NC1C(O)CC(OC(CO)C(O)C2OC(OC(CO)C(O)C3OC(OC4C(O)C(OC5C(CO)OC(O)C(O)C5O)OC(CO)C4OC4OC(CO)C(O)C(OC5OC(CO)C(O)C(O)C5O)C4NC(C)=O)(C(=O)O)CC(O)C3NC(C)=O)(C(=O)O)CC(O)C2NC(C)=O)(C(=O)O)OC1C(O)C(O)CO (centres unmarked),hly,binding,,pH 5.5,,Kd,2.3 nM
COC(=O)[C@@H]1C=C(OC(=O)c2ccc(O)cc2)C(=O)[C@H]2[C@@]1(C)CC[C@H]1C(=O)O[C@H](c3ccoc3)C[C@]21C,OPRM1 with beta-arrestin-2,"β-arrestin-2 recruitment, agonist, PathHunter",CHO-K1,,,EC50,21 ± 4 nM
Nc1ncnc2c1c(-c1cnc3[nH]ccc3c1)nn2C1CCCC1,"FYN (Homo sapiens, UniProt P06241, L253P/M250P/T254P)",inhibitor,,,,Ki,7.5 nM
CCC(c1ccc(-c2cc(F)ccc2F)cc1)n1ccnc1 (centres unmarked),cyp121,binding,,,,Kd,7500 ± 860 nM
COC(=O)[C@@H]1C=C(OC(=O)Cc2ccccc2)C(=O)[C@H]2[C@@]1(C)CC[C@H]1C(=O)O[C@H](c3ccoc3)C[C@]21C,OPRK1,"forskolin-induced cAMP inhibition, agonist",CHO-K1 expressing human KOR,,,EC50,187 ± 29 nM
CC(C)n1nc(-c2ccc3cc(OCc4cccc(Cl)c4)ccc3c2)c2c(N)ncnc21,"FYN (Homo sapiens, UniProt P06241, G531I/P530I/Q529E)",inhibitor,,,,Ki,220 nM
COC(=O)[C@@H]1C=C(OC(=O)c2ccc(O)c(F)c2)C(=O)[C@H]2[C@@]1(C)CC[C@H]1C(=O)O[C@H](c3ccoc3)C[C@]21C,"OPRM1 (Homo sapiens, UniProt P35372)","forskolin-induced cAMP inhibition, agonist",CHO-K1 expressing human MOR,,,EC50,0.6 ± 0.2 nM
CCC(c1ccc(-c2ccc(F)c(F)c2)cc1F)n1ccnc1 (centres unmarked),cyp121,binding,,,,Kd,5000 ± 1500 nM
CN1CC[C@]23c4c5ccc(O)c4O[C@H]2c2ncc(-c4ccc(Cl)cc4)cc2C[C@@]3(OCCCc2ccccc2)[C@H]1C5,"OPRD1 (Homo sapiens, UniProt P41143)",agonist,CHO membranes,,,EC50,1.3 ± 0.1 nM
COC(=O)[C@@H]1C=C(OC(=O)c2ccc(CO)cc2)C(=O)[C@H]2[C@@]1(C)CC[C@H]1C(=O)O[C@H](c3ccoc3)C[C@]21C,OPRK1,"forskolin-induced cAMP inhibition, agonist",CHO-K1 expressing human KOR,,,EC50,> 10000 nM
CCc1ccc(CCN)cc1,Slc6a3,"dopamine release, releaser",rat brain synaptosomes,,,EC50,2090 ± 195 nM
CCC(c1ccc(-c2ccc(O)c(C)c2)cc1)n1ccnc1 (centres unmarked),cyp121,binding,,,,Kd,6500 ± 2700 nM
CC(=O)NC1C(O)CC(OC(CO)C(O)C2OC(OC(CO)C(O)C3OC(OC4C(O)C(CO)OC(OC5C(CO)OC(O)C(O)C5O)C4O)(C(=O)O)CC(O)C3NC(C)=O)(C(=O)O)CC(O)C2NC(C)=O)(C(=O)O)OC1C(O)C(O)CO (centres unmarked),hly,binding,,pH 7,,Kd,4.3 nM
CCC(c1ccc(-c2ccc3[nH]ccc3c2)cc1)n1ccnc1 (centres unmarked),cyp121,binding,,,,Kd,2900 ± 1200 nM
COC(=O)[C@@H]1C=C(OC(=O)c2ccc(O)c(Br)c2)C(=O)[C@H]2[C@@]1(C)CC[C@H]1C(=O)O[C@H](c3ccoc3)C[C@]21C,OPRM1 with beta-arrestin-2,"β-arrestin-2 recruitment, agonist, PathHunter",CHO-K1,,,EC50,1600 ± 300 nM
CCOC(=O)c1cncn1[C@@H](C)c1c(F)c(F)c(F)c(F)c1F,"GABA-A receptor alpha-1/beta-3, with gamma-2 subunit (GABRA1/GABRB3, Homo sapiens, UniProt P14867+P28472, L291T)","ion current, agonist, two-electrode voltage clamp",Xenopus laevis oocytes,,baseline: 100 µM GABA,EC50,166000 ± 25000 nM
CCC(c1ccc(-c2ccc(F)c(F)c2)cc1)n1ccnc1 (centres unmarked),cyp121,binding,,,,Kd,4100 ± 910 nM
CCNC(C)Cc1ccc2c(c1)OCO2 (centres unmarked),Slc6a3,"dopamine release, releaser",rat brain synaptosomes,,,EC50,622 ± 121 nM
COC(=O)[C@@H]1C=C(OC(=O)c2cccc(O)c2)C(=O)[C@H]2[C@@]1(C)CC[C@H]1C(=O)O[C@H](c3ccoc3)C[C@]21C,OPRM1 with beta-arrestin-2,"β-arrestin-2 recruitment, agonist, PathHunter",CHO-K1,,,EC50,40 ± 10 nM
CCC(c1ccc(-c2ccc3ccccc3c2)cc1)n1ccnc1 (centres unmarked),cyp121,binding,,,,Kd,1400 ± 200 nM
CC(C)n1nc(-c2ccc3c(c2)OCO3)c2c(N)ncnc21,"FYN (Homo sapiens, UniProt P06241, S254P/T250P/T253P)",inhibitor,,,,Ki,190 nM
CC(c1ccc2c(c1)Cc1ccccc1-2)n1ccnc1 (centres unmarked),cyp121,binding,,,,Kd,4800 ± 780 nM
Oc1cc(Cn2cc(C3CC3)nn2)ccc1Oc1ccccc1Cl,"inhA (Mycobacterium tuberculosis, UniProt P9WGR1)","enzyme activity, slow-onset inhibitor",,"20 °C, final EI* complex",,Ki,68 ± 9 nM
O=C(NS(=O)(=O)OC[C@H]1O[C@@H](n2cnc3c(NCc4ccccc4)ncnc32)[C@H](O)[C@@H]1O)c1ccccc1O,"Vibriobactin-specific 2,3-dihydroxybenzoate-AMP ligase (vibE, Vibrio cholerae serotype O1, UniProt O07899)",binding,Vibrio cholerae,,,Kd,8.83 ± 1.29 nM
CC(C)n1nc(-c2ccc3cc(OCc4ccccc4)ccc3c2)c2c(N)ncnc21,"FYN (Homo sapiens, UniProt P06241, G534I/P533E/Q532E)",inhibitor,,,,Ki,120 nM
CCC(c1ccc(-c2cscc2C)cc1)n1ccnc1 (centres unmarked),cyp121,binding,,,,Kd,9400 ± 660 nM

# For quick reference, copied from above:
SMILES,target,assay,system,setting,how to read,endpoint,result
CCOC(=O)c1cncn1[C@@H](C)c1c(F)c(F)c(F)c(F)c1F,"GABA-A receptor alpha-1/beta-3, with gamma-2 subunit (GABRA1/GABRB3, Homo sapiens, UniProt P14867+P28472, L291T)","ion current, agonist, two-electrode voltage clamp",Xenopus laevis oocytes,,baseline: 100 µM GABA,EC50,166000 ± 25000 nM
CCC(c1ccc(-c2ccc(F)c(F)c2)cc1)n1ccnc1 (centres unmarked),cyp121,binding,,,,Kd,4100 ± 910 nM
